{"data": "Results collected from several papers", "note": "Numbered parts are unrelated; each lists some results of a single study. “And” joins repeats or separate records; there may be more than shown."}
{"data": "Sample 1", "cell line": "mouse MPNST tumor cells", "method": "high-content nuclear imaging", "refers to": "cell number", "tested at": "10 µM", "time": "12 h", "notes": "mean of 2 replicates", "baseline": "plate mean", "direction": "higher = more cells"}
{"Structure (SMILES)": "CN1C[C@H](CNC(=O)OCc2ccccc2)C[C@@H]2c3cccc4c3c(cn4C)C[C@H]21", "nuclei count": "0.712 z-score and -3.82 z-score"}
{"Structure (SMILES)": "CC(C)(C)c1cc(C(C)(C)C)c2c(c1)C(O)(C(F)(F)F)C(=O)O2 (racemic)", "nuclei count": "1.7 z-score"}
{"Structure (SMILES)": "C[N+]1(C)CCCC(OC(=O)C(O)(c2ccccc2)c2ccccc2)C1 (centres unmarked)", "nuclei count": "0.65 z-score"}
{"Structure (SMILES)": "CCCCCn1cc(C(=O)NC23CC4CC(CC(C4)C2)C3)c(=O)c2cc(-c3ccccc3)ccc21", "nuclei count": "2.11 z-score"}
{"Structure (SMILES)": "CCOc1ccccc1-n1c(C(C)N2CCN(C(=O)COc3ccc(Cl)cc3)CC2)nc2ccccc2c1=O (centres unmarked)", "nuclei count": "-6.31 z-score"}
{"Structure (SMILES)": "COc1cc2c(c(OC)c1OC)-c1ccc(OC)c(=O)cc1[C@@H](NC(C)=O)CC2", "nuclei count": "-4.15 z-score"}
{"data": "Sample 2", "target": "DNA polymerase theta, ATPase domain (POLQ, Homo sapiens, UniProt O75417)", "read-out": "enzyme activity", "action": "inhibitor", "tested at": "77 µM", "baseline": "untreated", "sequence of UniProt O75417 (whole entry, unmodified, looked up)": "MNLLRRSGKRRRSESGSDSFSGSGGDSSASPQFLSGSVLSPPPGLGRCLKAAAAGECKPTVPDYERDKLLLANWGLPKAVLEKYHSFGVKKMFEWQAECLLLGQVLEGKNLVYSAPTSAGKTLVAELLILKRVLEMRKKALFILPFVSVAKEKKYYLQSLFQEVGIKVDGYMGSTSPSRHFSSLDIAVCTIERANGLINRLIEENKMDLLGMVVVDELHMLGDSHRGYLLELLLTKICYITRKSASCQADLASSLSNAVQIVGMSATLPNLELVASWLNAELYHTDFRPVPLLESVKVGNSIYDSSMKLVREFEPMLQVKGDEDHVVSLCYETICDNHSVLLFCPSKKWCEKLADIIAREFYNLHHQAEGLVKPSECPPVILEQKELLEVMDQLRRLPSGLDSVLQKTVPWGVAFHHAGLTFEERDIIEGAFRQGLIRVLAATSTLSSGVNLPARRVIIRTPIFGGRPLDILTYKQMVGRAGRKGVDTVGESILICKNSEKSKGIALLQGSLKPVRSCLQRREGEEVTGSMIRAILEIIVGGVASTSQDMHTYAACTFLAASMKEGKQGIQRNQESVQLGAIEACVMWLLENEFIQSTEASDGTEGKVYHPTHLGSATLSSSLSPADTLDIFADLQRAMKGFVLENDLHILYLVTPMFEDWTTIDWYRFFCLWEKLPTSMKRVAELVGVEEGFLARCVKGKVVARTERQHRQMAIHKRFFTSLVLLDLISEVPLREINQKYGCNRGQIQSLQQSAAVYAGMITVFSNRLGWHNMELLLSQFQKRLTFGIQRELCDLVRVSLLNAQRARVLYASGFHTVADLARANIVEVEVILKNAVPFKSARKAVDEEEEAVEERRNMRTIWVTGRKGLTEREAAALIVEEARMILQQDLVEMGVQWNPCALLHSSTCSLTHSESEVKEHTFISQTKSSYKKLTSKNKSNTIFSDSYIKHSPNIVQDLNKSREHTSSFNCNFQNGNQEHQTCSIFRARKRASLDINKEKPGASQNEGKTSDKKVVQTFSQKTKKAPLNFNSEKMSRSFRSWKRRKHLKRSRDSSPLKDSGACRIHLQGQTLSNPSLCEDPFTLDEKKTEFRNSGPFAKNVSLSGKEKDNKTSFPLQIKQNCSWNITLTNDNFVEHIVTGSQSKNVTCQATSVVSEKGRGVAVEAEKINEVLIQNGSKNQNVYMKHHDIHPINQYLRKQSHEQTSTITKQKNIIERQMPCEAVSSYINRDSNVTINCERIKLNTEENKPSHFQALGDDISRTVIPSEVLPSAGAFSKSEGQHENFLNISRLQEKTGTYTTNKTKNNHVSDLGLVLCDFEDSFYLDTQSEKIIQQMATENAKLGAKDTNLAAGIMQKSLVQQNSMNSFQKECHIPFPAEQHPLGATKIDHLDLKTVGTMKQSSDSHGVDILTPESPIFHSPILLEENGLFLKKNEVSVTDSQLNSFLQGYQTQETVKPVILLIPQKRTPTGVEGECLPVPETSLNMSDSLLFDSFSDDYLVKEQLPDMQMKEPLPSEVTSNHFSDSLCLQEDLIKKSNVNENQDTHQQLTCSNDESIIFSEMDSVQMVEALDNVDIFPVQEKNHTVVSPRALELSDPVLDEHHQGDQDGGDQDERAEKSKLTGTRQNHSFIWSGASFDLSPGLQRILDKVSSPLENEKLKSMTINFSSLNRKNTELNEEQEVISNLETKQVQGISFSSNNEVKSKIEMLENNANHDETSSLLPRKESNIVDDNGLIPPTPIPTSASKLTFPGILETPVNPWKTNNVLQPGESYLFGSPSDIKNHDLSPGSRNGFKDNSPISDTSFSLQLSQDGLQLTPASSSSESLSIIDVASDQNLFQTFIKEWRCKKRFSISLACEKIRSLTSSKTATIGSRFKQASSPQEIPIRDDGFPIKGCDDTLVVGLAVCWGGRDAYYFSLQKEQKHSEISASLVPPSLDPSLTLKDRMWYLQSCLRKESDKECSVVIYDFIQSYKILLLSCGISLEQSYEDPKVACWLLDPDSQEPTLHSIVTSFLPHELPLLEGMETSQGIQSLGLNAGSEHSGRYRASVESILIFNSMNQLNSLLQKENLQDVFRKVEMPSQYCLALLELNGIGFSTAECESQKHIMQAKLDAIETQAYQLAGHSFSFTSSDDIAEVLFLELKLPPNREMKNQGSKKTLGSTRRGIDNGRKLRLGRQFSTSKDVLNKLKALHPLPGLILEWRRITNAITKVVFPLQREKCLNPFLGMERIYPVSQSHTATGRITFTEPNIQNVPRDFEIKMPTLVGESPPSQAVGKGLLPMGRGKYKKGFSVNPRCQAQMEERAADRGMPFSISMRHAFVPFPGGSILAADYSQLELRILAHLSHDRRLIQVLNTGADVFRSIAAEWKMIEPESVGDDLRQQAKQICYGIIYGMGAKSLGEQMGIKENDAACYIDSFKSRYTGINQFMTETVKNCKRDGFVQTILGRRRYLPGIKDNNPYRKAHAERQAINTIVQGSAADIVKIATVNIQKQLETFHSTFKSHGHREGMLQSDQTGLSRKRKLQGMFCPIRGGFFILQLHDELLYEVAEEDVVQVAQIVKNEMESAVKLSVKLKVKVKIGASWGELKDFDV"}
{"SMILES": "O=C(O)CC[N+](=O)[O-]", "remaining activity": "103%"}
{"SMILES": "N=C(N)NN", "remaining activity": "90.3%"}
{"SMILES": "COc1cc2c(cc1O)[C@@H]1Cc3ccc(OC)c(O)c3CN1CC2", "remaining activity": "95.3%"}
{"SMILES": "C[C@@H]1CC[C@@]2(NC1)O[C@H]1C[C@H]3[C@@H]4CC=C5C[C@@H](O)CC[C@]5(C)[C@H]4CC[C@]3(C)[C@H]1[C@@H]2C", "remaining activity": "99.6%"}
{"SMILES": "CO[C@H]1CC[C@@H](O[C@H]2C[C@H]([C@]3(C)CC[C@]4(C[C@H](O)[C@@H](C)[C@@H]([C@@H](C)/C=C(\\C)C(=O)[C@H](C)C[C@H](C)C(=O)O)O4)O3)O[C@]3(O[C@@H]([C@H]4O[C@@](O)(CO)[C@H](C)C[C@@H]4C)C[C@@H]3C)[C@@H]2C)O[C@@H]1C", "remaining activity": "99.2%"}
{"SMILES": "c1ccc2c(c1)sc1ccccc12", "remaining activity": "94.8%"}
{"SMILES": "CCN1C[C@]2(COC)CC[C@H](OC)[C@@]34C1[C@]1(OCO[C@@]15C[C@H](OC)[C@H]1C[C@@H]3[C@@H]5[C@H]1OC)[C@@H](O)[C@H]24", "remaining activity": "101%"}
{"data": "Sample 3", "cell line": "HEK-293T", "read-out": "pseudovirus infection", "method": "FDA-approved drug library counter-screen", "organism": "VSV pseudotyped with VSV-G", "tested at": "10 µM", "time": "16 h", "baseline": "vehicle-treated"}
{"SMILES": "O=C(O)c1ccc(-n2nc(-c3ccccc3O)nc2-c2ccccc2O)cc1", "GFP-positive cells": "45.3%"}
{"SMILES": "Cc1ccnc(NS(=O)(=O)c2ccc(N)cc2)n1", "GFP-positive cells": "121%"}
{"SMILES": "NC(=O)c1cnccn1", "GFP-positive cells": "104%"}
{"SMILES": "COC(=O)[C@@H]1CC2=CC(=O)CC[C@]2(C)[C@@]23O[C@@H]2C[C@@]2(C)[C@@H](CC[C@@]24CCC(=O)O4)[C@H]13", "GFP-positive cells": "100%"}
{"SMILES": "CN1CCc2nc(C(=O)N[C@@H]3C[C@@H](C(=O)N(C)C)CC[C@@H]3NC(=O)C(=O)Nc3ccc(Cl)cn3)sc2C1", "GFP-positive cells": "111%"}
{"SMILES": "C#C[C@]1(O)CC[C@H]2[C@@H]3CCC4=CC(=O)CC[C@@H]4[C@H]3CC[C@@]21CC", "GFP-positive cells": "101%"}
{"SMILES": "CCC(Cc1c(I)cc(I)c(N)c1I)C(=O)O (centres unmarked)", "GFP-positive cells": "84.5%"}
{"SMILES": "CC1=CC(=O)c2ccccc2C1=O", "GFP-positive cells": "122%"}
{"SMILES": "CC1(C)O[C@@H]2C[C@H]3[C@@H]4CCC5=CC(=O)C=C[C@]5(C)[C@@]4(F)[C@@H](O)C[C@]3(C)[C@]2(C(=O)CO)O1", "GFP-positive cells": "103%"}
{"SMILES": "CC[C@H](C)C(=O)O[C@H]1C[C@H](O)C=C2C=C[C@H](C)[C@H](CC[C@@H](O)C[C@@H](O)CC(=O)O)[C@H]21", "GFP-positive cells": "110%"}
{"SMILES": "C[N+](C)(C)CCOC(N)=O", "GFP-positive cells": "99%"}
{"SMILES": "CCC(=O)OCC(=O)[C@@]1(OC(=O)CC)[C@@H](C)C[C@H]2[C@@H]3CCC4=CC(=O)C=C[C@]4(C)[C@@]3(F)[C@@H](O)C[C@@]21C", "GFP-positive cells": "102%"}
{"SMILES": "C[C@]12C=CC(=O)C=C1CC[C@@H]1[C@@H]2[C@@H](O)C[C@@]2(C)[C@H]1CC[C@]2(O)C(=O)CO", "GFP-positive cells": "89.5%"}
{"SMILES": "CC(=O)OCC(CCn1cnc2cnc(N)nc21)COC(C)=O", "GFP-positive cells": "111%"}
{"SMILES": "CN(C)[C@@H]1C(O)=C(C(N)=O)C(=O)[C@@]2(O)C(O)=C3C(=O)c4c(O)ccc(Cl)c4[C@@H](O)[C@H]3C[C@@H]12", "GFP-positive cells": "113%"}
{"SMILES": "COc1ccc(C[C@@H]2c3cc(OC)c(OC)cc3CC[N@+]2(C)CCC(=O)OCCCCCOC(=O)CC[N@@+]2(C)CCc3cc(OC)c(OC)cc3[C@H]2Cc2ccc(OC)c(OC)c2)cc1OC", "GFP-positive cells": "114%"}
{"SMILES": "CC[C@H]1OC(=O)[C@H](C)[C@@H](O[C@H]2C[C@@](C)(OC)[C@@H](O)[C@H](C)O2)[C@H](C)[C@@H](O[C@@H]2O[C@H](C)C[C@H](N(C)C)[C@H]2O)[C@](C)(OC)C[C@@H](C)C(=O)[C@H](C)[C@@H](O)[C@]1(C)O", "GFP-positive cells": "106%"}
{"SMILES": "O=C1Nc2ccc(Cl)cc2[C@@](C#CC2CC2)(C(F)(F)F)O1", "GFP-positive cells": "87.2%"}
{"SMILES": "N[C@@H](C(=O)N[C@@H]1C(=O)N2C(C(=O)O)=C(Cl)CS[C@H]12)c1ccccc1", "GFP-positive cells": "92.7%"}
{"SMILES": "O=c1[nH]cnc2c1ncn2[C@H]1CC[C@@H](CO)O1", "GFP-positive cells": "114%"}
{"SMILES": "CC1(C)O[C@@H]2C[C@H]3[C@@H]4C[C@H](F)C5=CC(=O)C=C[C@]5(C)[C@@]4(F)[C@@H](O)C[C@]3(C)[C@]2(C(=O)CO)O1", "GFP-positive cells": "85.5%"}
{"SMILES": "O=C(O)c1ccccc1O", "GFP-positive cells": "92.3%"}
{"SMILES": "CNC(=O)c1ccccc1Sc1ccc2c(/C=C/c3ccccn3)n[nH]c2c1", "GFP-positive cells": "65.4%"}
{"SMILES": "CCOC(=O)[C@H](CCc1ccccc1)N[C@@H](C)C(=O)N1Cc2ccccc2C[C@H]1C(=O)O", "GFP-positive cells": "110%"}
{"SMILES": "CC(=O)c1ccc2c(c1)N(CCCN1CCC(CCO)CC1)c1ccccc1S2", "GFP-positive cells": "130%"}
{"data": "Sample 4", "target": "chymotrypsin", "read-out": "enzyme activity", "action": "inhibitor", "tested at": "10 µM", "notes": "with DTT"}
{"Compound": "Cc1ccc(S(=O)(=O)N[C@@H](Cc2ccccc2)C(=O)CCl)cc1", "inhibition": "39.6%"}
{"Compound": "COc1cc(N(C)C)cc(CN(C)CCc2ccc([N+](=O)[O-])cc2)c1O", "inhibition": "10.8%"}
{"Compound": "CCN1CCN(C(c2ccc(C(F)(F)F)cc2)c2ccc3cccnc3c2O)CC1 (centres unmarked)", "inhibition": "3.7%"}
{"Compound": "CC(Cc1ccc(O)c(O)c1)C(C)Cc1ccc(O)c(O)c1 (centres unmarked)", "inhibition": "4%"}
{"Compound": "C[n+]1c2cc(N)ccc2cc2ccc(N)cc21.Nc1ccc2cc3ccc(N)cc3nc2c1", "inhibition": "22%"}
{"Compound": "O=C1C(=Cc2cccnc2)C(=O)c2ccccc21", "inhibition": "9%"}
{"Compound": "O=C1/C(=C/c2ccc([N+](=O)[O-])cc2)CS(=O)(=O)C/C1=C\\c1ccc([N+](=O)[O-])cc1", "inhibition": "8.4%"}
{"Compound": "COc1ccc([N+](=O)[O-])c(S(=O)(=O)c2ccc(Cl)cc2)n1", "inhibition": "11.4%"}
{"Compound": "Cc1c(OCC(F)(F)F)ccnc1C[S+]([O-])c1nc2ccccc2[nH]1 (centres unmarked)", "inhibition": "5.7%"}
{"Compound": "CC(=O)OC[C@H]1O[C@@H]([S-])[C@H](OC(C)=O)[C@@H](OC(C)=O)[C@@H]1OC(C)=O.CCP(CC)CC.[Au+]", "inhibition": "8.6%"}
{"Compound": "Cc1cc(C)cc(N2C(=O)CC(Sc3nnc[nH]3)C2=O)c1 (centres unmarked)", "inhibition": "2.9%"}
{"Compound": "CCCC[C@H](NC(=O)[C@@H]1[C@@H]2[C@H](CN1C(=O)[C@@H](NC(=O)NC1(CS(=O)(=O)C(C)(C)C)CCCCC1)C(C)(C)C)C2(C)C)C(=O)C(=O)NC1CC1", "inhibition": "102%"}
{"Compound": "Cc1ccc(-n2sc3ccccc3c2=O)cc1", "inhibition": "1.1%"}
{"Compound": "c1cnc(SCc2cccnc2)nc1", "inhibition": "1.2%"}
{"Compound": "NC(Cc1cc(O)c(O)cc1O)C(=O)O (racemic)", "inhibition": "3%"}
{"Compound": "Cc1ccccc1N(C)C(=O)c1ccc([S+]([O-])c2nccs2)c([N+](=O)[O-])c1 (centres unmarked)", "inhibition": "0.131%"}
{"Compound": "O=C1OC2(c3cc(I)c(O)c(I)c3Oc3c2cc(I)c(O)c3I)c2c(Cl)c(Cl)c(Cl)c(Cl)c21", "inhibition": "-3%"}
{"Compound": "Oc1ccc(C2CNCCc3c2cc(O)c(O)c3Cl)cc1 (centres unmarked)", "inhibition": "4.1%"}
{"Compound": "O=C1OC2(c3ccccc31)c1cc(Br)c(O)c(Br)c1Oc1c2cc(Br)c(O)c1Br", "inhibition": "13.6%"}
{"Compound": "Cc1ccc(-n2sc(=O)n(Cc3ccc(F)cc3)c2=O)cc1", "inhibition": "24.5%"}
{"Compound": "Sc1nnc(-c2ccccc2Cl)o1", "inhibition": "1.5%"}
{"Compound": "CO[C@@H]1[C@H](OC(=O)NC(=O)CCl)CC[C@]2(CO2)[C@H]1[C@@]1(C)O[C@@H]1CC=C(C)C", "inhibition": "7.3%"}
{"Compound": "CC(C)C[C@@H](C=O)NC(=O)[C@H](CC(C)C)NC(=O)[C@H](CC(C)C)NC(=O)OCc1ccccc1", "inhibition": "2.5% and 7.6%"}
{"Compound": "O=C(/C=C/c1ccc(O)c(O)c1)O[C@H](Cc1ccc(O)c(O)c1)C(=O)O", "inhibition": "-0.372%"}
{"note": "Repeated from above (sample 1):"}
{"Structure (SMILES)": "CCOc1ccccc1-n1c(C(C)N2CCN(C(=O)COc3ccc(Cl)cc3)CC2)nc2ccccc2c1=O (centres unmarked)", "nuclei count": "-6.31 z-score"}
{"Structure (SMILES)": "CCCCCn1cc(C(=O)NC23CC4CC(CC(C4)C2)C3)c(=O)c2cc(-c3ccccc3)ccc21", "nuclei count": "2.11 z-score"}
{"Structure (SMILES)": "CC(C)(C)c1cc(C(C)(C)C)c2c(c1)C(O)(C(F)(F)F)C(=O)O2 (racemic)", "nuclei count": "1.7 z-score"}
{"Structure (SMILES)": "COc1cc2c(c(OC)c1OC)-c1ccc(OC)c(=O)cc1[C@@H](NC(C)=O)CC2", "nuclei count": "-4.15 z-score"}
